# Values quoted from earlier work, collected from citations in different studies.
# Protocols differ between the studies behind these lines. Numbers after ± are the reported error.
Structure (SMILES),target or system,test,test system,setting,endpoint,result
F[P-](F)(F)(F)(F)F.OCP(CO)CO.OCP(CO)CO.OCP(CO)CO.OCP(CO)CO.[Cu+],,,water,,stability,stable
COC[C@@H](NC(C)=O)C(=O)NCc1ccc(-c2cccc(F)c2)cc1,,,rat,"oral, maximal electroshock seizure test",protective index,> 210
[O-][N+]1=C(c2ccccc2)C2=NCCCN2c2ncccc21,,,octanol/PBS,,logP,0.311
COC[C@@H](NC(C)=O)C(=O)NCc1ccc(OCc2cccc(F)c2)cc1,,behavioural toxicity,rat,oral,TD50,> 500 mg/kg
CSCC[C@H](NC(=O)[C@H](CC(C)C)NC(=O)CNC(=O)[C@H](Cc1ccccc1)NC(=O)[C@H](Cc1ccccc1)NC(=O)[C@H](CCC(N)=O)NC(=O)[C@H](CCC(N)=O)NC(=O)[C@@H]1CCCN1C(=O)[C@H](CCCCN)NC(=O)[C@@H]1CCCN1C(=O)[C@@H](N)CCCN=C(N)N)C(N)=O,,,diabetic mice,,half-life,< 0.0167 h
C=C(C)[C@@H]1CCC(C(=O)O)=C[C@H]1c1c(O)cc(CCCCC)cc1O,,,healthy volunteers,"dose not given, steady state, together with: stiripentol",decrease in AUC(0-tau),13%
CC[C@H](C)[C@H](NC(=O)[C@H](CCCCN)NC(=O)[C@H](CCCCN)NC(=O)[C@H](Cc1ccccc1)NC(=O)[C@H](CC(C)C)NC(=O)[C@H](CCCCN)NC(=O)[C@H](Cc1c[nH]c2ccccc12)NC(=O)[C@H](CCCCN)NC(C)=O)C(=O)NCC(=O)N[C@@H](C)C(=O)N[C@H](C(=O)N[C@@H](CC(C)C)C(=O)N[C@@H](CCCCN)C(=O)N[C@H](C(=O)N[C@@H](CC(C)C)C(N)=O)C(C)C)C(C)C,,,membranes,,alpha-helical content,~60%
CNC1C(O)C(NC)C2OC3(O)C(OC(C)C[C@H]3NC(=O)Cc3cscn3)OC2C1O.Cl.Cl (some centres unmarked),,,mouse liver microsomes,,half-life,5.6 h
O=C(OCC[18F])C1C2CCC(CC1c1ccc(/C=C\I)cc1)N2 (centres unmarked),SERT,microPET,"anaesthetised, cerebellum",,time to peak uptake,45 min
C=C(C)[C@@H]1CCC(CO)=C[C@H]1c1c(O)cc(CCCCC)cc1O,,,healthy volunteers,"dose not given, steady state, together with: valproate",increase in AUC(0-tau),22%
COc1ccc(CCN2CCN(C/C=C/[125I])CC2)cc1OC,,refers to: clearance,"mouse, whole brain",,half-life,0.6 h
CNC(=O)N[C@H]1CC[C@H](CCN2CCN(c3cccc(Cl)c3Cl)CC2)CC1,,,"human, plasma",,t1/2,24 to 48 h
CC[C@H](C)C(=O)N1CCC(NC(=O)Nc2ccc(OC(F)(F)F)c(F)c2)CC1,,,rat,oral,oral bioavailability,96%
CCCCCCCC(=O)OC[C@H](NC(=O)[C@H](CO)NC(=O)CN)C(=O)N[C@@H](Cc1ccccc1)C(=O)N[C@@H](CC(C)C)C(=O)N[C@@H](CO)C(=O)N1CCC[C@H]1C(=O)N[C@@H](CCC(=O)O)C(=O)N[C@@H](Cc1cnc[nH]1)C(=O)N[C@@H](CCC(N)=O)C(=O)N[C@@H](CCCNC(=N)N)C(=O)N[C@H](C(=O)N[C@@H](CCC(N)=O)C(=O)N[C@@H](CCC(N)=O)C(=O)N[C@@H](CCCNC(=N)N)C(=O)N[C@@H](CCCCN)C(=O)N[C@@H](CCC(=O)O)C(=O)N[C@@H](CO)C(=O)N[C@@H](CCCCN)C(=O)N[C@@H](CCCCN)C(=O)N1CCC[C@H]1C(=O)N1CCC[C@H]1C(=O)N[C@@H](C)C(=O)N[C@@H](CCCCN)C(=O)N[C@@H](CC(C)C)C(=O)N[C@@H](CCC(N)=O)C(=O)N1CCC[C@H]1C(=O)N[C@@H](CCCNC(=N)N)C(=O)O)C(C)C,,refers to: total ghrelin,,"intravenous bolus, 1 and 5 µg/kg",half-life,0.45 to 0.517 h
CN[C@](C)(C[18F])C(=O)O,,,rat (orthotopic brain tumour),60 min,brain uptake,0.05 ± 0.01 %ID/g
CNC1C(O)C(NC)C2OC3(O)C(OC(C)C[C@H]3NC(=O)Cc3cc(Cl)ccn3)OC2C1O.Cl.Cl (some centres unmarked),,,mouse liver microsomes,,half-life,1.5 h
OC1C=Cc2c(cc3ccc4cccc5c6ccccc6c2c3c45)C1O (centres unmarked),,,mouse liver microsomes,phase II glucuronidation (UGT),Km,29.7 µM
CC(C)C[C@H]1NC(=O)[C@H](NC(=O)CN)CSSC[C@H]2NC(=O)[C@H]3CSSC[C@H](C(=O)N[C@H](CC(N)=O)C(=O)N[C@H](Cc4ccccc4)C(=O)N[C@H](CO)C(=O)N[C@H](Cc4ccccc4)C(N)=O)NC(=O)[C@@H](CC(C)C)NC(=O)[C@@H](CCCCN)NC(=O)[C@@H](Cc4ccccc4)NC(=O)[C@@H](CC(C)C)NC(=O)[C@@H](CCCCN)NC(=O)[C@@H](CO)NC(=O)[C@@H](CSSC[C@@H](NC(=O)[C@@H](CCCCN)NC(=O)[C@@H](Cc4c[nH]c5ccccc45)NC(=O)[C@@H](Cc4c[nH]c5ccccc45)NC(=O)[C@@H](Cc4ccccc4)NC(=O)[C@@H](CCC(=O)O)NC1=O)C(=O)N[C@H](CC(N)=O)C(=O)N1CCC[C@@H]1C(=O)N[C@H](CC(N)=O)C(=O)N[C@H](CC(=O)O)C(=O)N[C@H](CC(=O)O)C(=O)N[C@H](CCCCN)C(=O)N3)NC(=O)[C@@H](CCCCN)NC(=O)[C@@H](CC(C)C)NC(=O)[C@@H](CCCCN)NC(=O)[C@H]1CCCN1C(=O)[C@@H](CCCNC(=N)N)NC2=O,,,"C57BL/6J mice, cardiac muscle","subcutaneous, 50 mg/kg, within 24 h",concentration,~1000 nM
C=C(C)C12OC3(c4ccccc4)OC1C1C4OC4(CO)C(O)C4(O)C(=O)C(C)=CC4C1(O3)C(C)C2OC(=O)c1ccccc1 (centres unmarked),,,mouse 22Rv1 and PDX models,"intraperitoneal, 0.5 mg/kg 5 times weekly, end of dosing",body weight loss,~9%
CON(C(=O)c1cn(C)nc1C(F)F)C(C)Cc1c(Cl)cc(Cl)cc1Cl (centres unmarked),,,zebrafish (Danio rerio),96 h,LC50,0.729 mg a.i./L
O=C(CO)COP(=O)(O)O,,,water,carbon acid,pKa,~18
COc1cccc(-c2cccc(OC)n2)n1.[Ru+2].c1cnc2c(c1)ccc1cccnc12.c1cnc2c(c1)ccc1cccnc12,,,octanol/water,pH 7.4,log D,-1.3
O=C(N[C@@H](Cc1coc2ccccc12)B(O)O)[C@@H]1C[C@H]2CC[C@@H]1O2,,,rat,"oral, 10 mg/kg once daily, repeated dosing",tolerability,not toxic
CC1=CC(C)=[N+]2C1=Cc1ccc(CCC(=O)NCC3C[NH][Pt]([Cl])([Cl])[NH]3)n1[B-]2(F)F (centres unmarked),,,octanol/water,,logP,0.58
CN[C@H](CC(C)C)C(=O)N[C@H]1C(=O)N[C@@H](CC(N)=O)C(=O)N[C@H]2C(=O)N[C@H]3C(=O)N[C@H](C(=O)N[C@H](C(=O)O)c4cc(O)cc(O)c4-c4cc3ccc4O)[C@H](O)c3ccc(c(Cl)c3)Oc3cc2cc(c3O[C@@H]2O[C@H](CO)[C@@H](O)[C@H](O)[C@H]2O[C@H]2C[C@](C)(NCc3ccc(-c4ccc(Cl)cc4)cc3)[C@H](O)[C@H](C)O2)Oc2ccc(cc2Cl)[C@H]1O,,,"mouse, plasma","intravenous, 75 mg/kg (MTD)",AUC,575 µg·h/mL
CC[C@@H]1CN2CCc3c([nH]c4cccc(OC)c34)[C@@H]2C[C@@H]1/C(=C\OC)C(=O)OC,,,rat,oral,oral bioavailability,20 to 30%
COC1CC(OC2CCC3(C)C4CCC5(C)C(C6=CC(=O)OC6)CCC5(O)C4CCC3(O)C2)OC(C)C1OC1OC(CO)C(O)C(O)C1O (centres unmarked),,refers to: compound and hydrolysate,"rat, urine and faeces",,total excretion,< 14%
CC(C)[C@@H]1CC[C@@H](C)C[C@H]1C(=O)NCCc1ccccn1,,,rat,"dietary, 90 days",NOAEL,5 mg/kg/day
CCCCCc1cc(O)c2c(c1)OC(C)(C)C1CCC(C(=O)OC3OC(C(=O)O)C(O)C(O)C3O)=CC21 (centres unmarked),,,"human, plasma",inhalation,Tmax,~2 h

# Some of these lines once more:
Structure (SMILES),target or system,test,test system,setting,endpoint,result
C=C(C)[C@@H]1CCC(C(=O)O)=C[C@H]1c1c(O)cc(CCCCC)cc1O,,,healthy volunteers,"dose not given, steady state, together with: stiripentol",decrease in AUC(0-tau),13%
CCCCCc1cc(O)c2c(c1)OC(C)(C)C1CCC(C(=O)OC3OC(C(=O)O)C(O)C(O)C3O)=CC21 (centres unmarked),,,"human, plasma",inhalation,Tmax,~2 h
CN[C@H](CC(C)C)C(=O)N[C@H]1C(=O)N[C@@H](CC(N)=O)C(=O)N[C@H]2C(=O)N[C@H]3C(=O)N[C@H](C(=O)N[C@H](C(=O)O)c4cc(O)cc(O)c4-c4cc3ccc4O)[C@H](O)c3ccc(c(Cl)c3)Oc3cc2cc(c3O[C@@H]2O[C@H](CO)[C@@H](O)[C@H](O)[C@H]2O[C@H]2C[C@](C)(NCc3ccc(-c4ccc(Cl)cc4)cc3)[C@H](O)[C@H](C)O2)Oc2ccc(cc2Cl)[C@H]1O,,,"mouse, plasma","intravenous, 75 mg/kg (MTD)",AUC,575 µg·h/mL
